Assay results of several laboratories.
Protocols differ between the studies behind these lines. “And” joins repeats or separate records; there may be more than shown. ± gives the spread as reported.
MAPK8: Mitogen-activated protein kinase 8 (MAPK8, Homo sapiens, UniProt P45983)

| SMILES | target | test | test system | setting | scale | quantity | value |
| --- | --- | --- | --- | --- | --- | --- | --- |
| Cc1ccc(C(=O)N2c3ccc(F)cc3[C@@H](Nc3ccccc3)C[C@H]2C)cc1 | Ecdysone receptor (Aedes albopictus, UniProt Q9U3Y4) | ligand binding, inhibitor | intact cells | together with: [3H]ponasterone A | direction not given | pIC50 Z-score | -0.2 |
| N#CN1CC[C@H](C(=O)Nc2nc3c(s2)CN(C(=O)CN=[N+]=[N-])CC3)C1 | Pyruvate carboxylase, mitochondrial (Homo sapiens, UniProt P11498) | click pull-down LC-MS/MS | HEK293T cells |  |  | total spectral count | 4 |
| O=C1c2sc(-c3ccc(N4CCC(CO)CC4)nc3F)nc2CCN1c1cccnc1 | TAR DNA-binding protein 43, aggregated (TARDBP, Homo sapiens, UniProt Q13148) | binding, surface plasmon resonance | brain-derived TDP-43 aggregates | 18.8 nM |  | SPR response | 2.25 RU |
| CC(C)C[C@@H]1NC(=O)[C@H](Cc2ccccc2)NC(=O)[C@H](CO)NC(=O)[C@H](Cc2ccccc2)NC(=O)CSC[C@@H](C(=O)N(C)[C@@H](Cc2ccccc2)C(N)=O)NC(=O)[C@H](Cc2c[nH]c3ccccc23)NC(=O)[C@H](Cc2c[nH]cn2)NC(=O)[C@H](Cc2ccc(O)cc2)NC1=O | Stimulator of interferon genes protein (STING1, Homo sapiens, UniProt Q86WV6, H232R) | thermal stability, DSF |  | 50 µM |  | ΔTm | 7.75 °C |
| CC[C@H](C)[C@H](NC(=O)[C@@H](NC(=O)[C@@H](NC(=O)[C@@H](NC(=O)[C@H](CCCNC(=N)N)NC(=O)[C@H](CCC(=O)O)NC(=O)[C@H](CCC(=O)O)NC(=O)[C@H](C)NC(=O)[C@H](CCC(=O)O)NC(=O)CNC(=O)[C@H](C)NC(=O)CN)C(C)C)C(C)C)C(C)C)C(=O)N[C@@H](CC(=O)O)C(=O)N[C@@H](CC(=O)O)C(=O)N[C@@H](CC(=O)O)C(=O)N[C@@H](CCC(=O)O)C(=O)N[C@@H](CC(=O)O)C(=O)N[C@@H](CC(=O)O)C(=O)N[C@@H](CC(=O)O)C(=O)N[C@@H](C)C(=O)N[C@@H](CCC(=O)O)C(=O)N[C@@H](CC(N)=O)C(=O)N[C@@H](CO)C(=O)N[C@@H](CO)C(=O)N[C@@H](CO)C(=O)N[C@@H](CCCNC(=N)N)C(=O)N[C@@H](Cc1ccc(O)cc1)C(=O)O | Small ubiquitin-related modifier 2, N-terminally truncated (Homo sapiens, UniProt P61956, C48A) | binding, ITC | Tris buffer | pH 7.4, ΔN-SUMO2 |  | -TΔS | -9.77 ± 0.22 kcal/mol |
| CCN(CC)C(CO)c1cccc2c(C)c(C)oc12 (stereo not drawn) | Lysophosphatidic acid receptor 1 (LPAR1, Homo sapiens, UniProt Q92633) | G-protein dissociation, agonist, NanoBiT | HEK-293T | 10 µM, wild-type receptor | reference: baseline luminescence | fold change | 0.605 and 0.743 and 0.671 and 0.735 and 0.678 and 0.556 |
| Cn1c(=O)n(C2CCC(=O)NC2=O)c2ccc(C3CCN(CC(=O)Nc4cccc(CS(=O)(=O)N5CC[C@H](Nc6cccc(-c7sc(C(=O)O)c(OCC(=O)O)c7Cl)c6)CC5(C)C)c4)CC3)cc21 (stereo partly drawn) | Tyrosine-protein phosphatase non-receptor type 1 (Mus musculus, UniProt P35821) | degrader, Western blot | B16-F10 | 1 µM |  | remaining protein | 1.6% and 1.8% |
| CCC1(CC)C(=O)N(c2cccc(CN3CCN(Cc4ccc(Br)c5ccccc45)CC3)c2)C1=O.O=C(O)C(F)(F)F | Dipeptidyl peptidase 8 (Homo sapiens, UniProt Q6V1X1) | enzyme activity, inhibitor |  | 5 µM |  | activity vs control | 7.3% |
| CCCCCC(O)/C=C/C=O (stereo not drawn) | 26S proteasome regulatory subunit 10B (PSMC6, Homo sapiens, UniProt P62333) | acylphosphate-ATP probe SILAC-ABPP | ZAK-transfected HEK293T | 100 µM, together with: acylphosphate-ATP probe | reference: DMSO over compound-treated | probe labelling ratio | 0.64 |
| COc1cc(C2C(NC(=O)c3ccc(NC(=O)OC(C)(C)C)cc3)(C(=O)O)C(c3ccc(OC(=O)c4cccs4)c(OC)c3)C2(NC(=O)c2ccc(NC(=O)OC(C)(C)C)cc2)C(=O)O)ccc1OC(=O)c1cccs1 (stereo not drawn) | Glucagon-like peptide 1 receptor (GLP1R, Homo sapiens, UniProt P43220, F230A) | cAMP accumulation, agonist |  | receptor mutant | reference: wild type | Emax | 43.7 ± 4.7% |
| CCCCCC=CC=C1C(=O)C=CC1CC=CCCCC(=O)O (stereo not drawn) | Elongation factor 2 (EEF2, Homo sapiens, UniProt P13639) | competitive isoTOP-ABPP | Ramos soluble proteome | 100 µM, together with: iodoacetamide probe | reference: DMSO over compound-treated, higher = stronger cysteine blockade | isoTOP-ABPP competition ratio | 2 |
| COC(=O)c1cc2cc3c(cc2oc1=O)N(CC(=O)NC(Cc1cccc(Cl)c1)C(=O)NCC=CS(=O)(=O)c1ccccc1)CCC3 (stereo not drawn) | Rhodesain (rhodesain, Trypanosoma brucei rhodesiense, UniProt Q95PM0) | inhibitor |  | pH 5.5, 37 °C, together with: Z-Phe-Arg-AMC |  | kinact/Ki | 4290 M⁻¹ s⁻¹ |
| CC(C)[C@@H]1NC(=O)[C@H](Cc2ccccc2)NC(=O)CSC[C@@H](C(N)=O)NC(=O)[C@H](CCC(=O)O)NC(=O)[C@H](CO)NC(=O)[C@H](Cc2c[nH]c3cccc(Cl)c23)NC(=O)[C@H](C2CCCCC2)NC(=O)[C@H](C(C)C)NC(=O)[C@H](Cc2ccc(O)cc2)NC(=O)[C@H](CC(=O)O)NC(=O)[C@H](Cc2c[nH]c3ccccc23)NC(=O)[C@H](Cc2ccc(N)nc2)NC(=O)[C@H](Cc2c[nH]c3ccc(Cl)cc23)NC(=O)[C@H](CCC(=O)O)NC1=O | Interleukin-1 receptor-like 2 (IL1RL2, Homo sapiens, UniProt Q9HB29) | reporter gene (SEAP), inhibitor, HEK-Blue IL-36R reporter | HEK-Blue IL-36R cells | 0.015 µM, 6 h, together with: IL-36β 0.01 ng/mL |  | remaining activity | 82.2% |
| COC(=O)[C@@]1(C)C=C(C(=O)OC(C)(C)C)C(=O)CC1 | MAPK8 | D-peptide binding, inhibitor, FP peptide displacement |  | 125 µM | lower is stronger displacement | fraction bound | 0.509 |
| CCOC(=O)C(CC)(CCCSCCOCCNc1ccc([N+](=O)[O-])c2nonc12)NC(=O)c1ccc(C2CC2)c(Cc2ccc(F)cc2)n1 (stereo not drawn) | Cannabinoid receptor 2 (Cnr2, Mus musculus, UniProt P47936) | cAMP, agonist |  |  |  | Emax | 118% |
| O=[N+]([O-])c1cc(Br)cc([N+](=O)[O-])c1NS(=O)(=O)c1ccc(Br)cc1 | PYL10, with HAB1 (Arabidopsis thaliana, UniProt Q8H1R0) | antagonist |  | 2.5 µM, together with: ABA 5 µM | higher = more HAB1 activity | HAB1 phosphatase activity | 0.083 a.u. and 0.09 a.u. and 0.081 a.u. |
| CN(C)c1ccc(-n2cc(COC(=O)[C@]3(C)C=C(C(=O)OC(C)(C)C)C(=O)CC3)nn2)cc1 | MAPK8 | D-peptide binding, inhibitor, FP peptide displacement |  | 3.125 µM | lower is stronger displacement | fraction bound | 0.912 |
| O=C(Cc1ccc(OCc2ccccc2)cc1)NC1(C(=O)O)CCN(C(=O)c2ccc(-c3cccc(Cl)c3)cc2)CC1 | Serine/threonine-protein kinase VRK1 (VRK1, Homo sapiens, UniProt Q99986) | enzyme activity, inhibitor |  | 10 µM |  | activity vs control | 90% |
| CCCn1ccc2c(N3CCN(CCCCOc4ccc5c(c4)NC(=O)CC5)CC3)cccc21 | D(2) dopamine receptor, long isoform (DRD2, Homo sapiens, UniProt P14416) | β-arrestin2 recruitment, agonist, Tango | human cells |  |  | log(τ/KA) | 6.7 ± 0.05 |
| Cn1cc(-c2cc(N3CCCCS3(=O)=O)ccc2N[C@H]2CC[C@H](C)CC2)c2cc[nH]c2c1=O (stereo in doubt) | Bromodomain-containing protein 2, BD1 (BRD2, Homo sapiens, UniProt P25440) | binding, competition with immobilised ligand |  | 1 µM |  | remaining binding | 0.5% |
| CC(=O)N[C@H]1[C@H]([C@H](O)[C@H](O)CNC(=O)c2ccc(-c3ccccc3)cc2)O[C@@](OCc2cccc(Cl)c2Cl)(C(=O)O)C[C@@H]1O | B-cell receptor CD22 (CD22, Homo sapiens, UniProt P20273) | ITC |  |  |  | ΔG | -8.94 ± 0.08 kcal/mol |
| CN(C)c1ccc(C#CCOC(=O)[C@]2(C)C=C(C(=O)OC(C)(C)C)C(=O)CC2)cc1 | MAPK8 | D-peptide binding, inhibitor, FP peptide displacement |  | 1000 µM | lower is stronger displacement | fraction bound | 0.271 |
| O=C(O)[C@@H]1O[C@@H](O[C@H]2[C@H](O)[C@H](O)[C@H](O[C@H]3[C@H](O)[C@H](O)[C@H](O[C@H]4[C@H](O)[C@H](O)[C@H](O)O[C@H]4C(=O)O)O[C@H]3C(=O)O)O[C@H]2C(=O)O)[C@@H](O)[C@@H](O)[C@@H]1O | Beta-lactoglobulin (LGB, Bos taurus, UniProt P02754, A134V/G80D) | isothermal titration calorimetry |  | pH 4.00, 37 °C, 50 mM KH2PO4 |  | -TΔS | 0.239 kcal/mol |
| COC(=O)c1cccc(-c2ccccc2O[C@@H]2O[C@H](CO)[C@H](O)[C@H](O)[C@H]2O)c1 | Adhesin FmlH, lectin domain (Escherichia coli, UniProt Q1RBS0) | binding to desialylated BSM, competition ELISA | UPEC UTI89 | 10 µM |  | inhibition (PI10) | 22.4 ± 2.6% |
| Cc1cc(C)c(CNC(=O)c2c(C)n(C(C)C3CCC(NC4(C)COC4)CC3)c3ccccc23)c(=O)[nH]1 (stereo not drawn) | Histone-lysine N-methyltransferase EZH2 (EZH2, Homo sapiens, UniProt Q15910) | enzyme activity |  |  |  | residence time | 150 min |
| COC(=O)[C@]1(Cc2ccccc2)C=C(C(=O)OC(C)(C)C)C(=O)CC1 | MAPK8 | D-peptide binding, inhibitor, FP peptide displacement |  | 500 µM | lower is stronger displacement | fraction bound | -0.0933 |
| COC(=O)[C@@]1(C)C=C(C(=O)Nc2cccc(C(=O)Nc3ccc(Nc4nccc(-c5cccnc5)n4)c(C)c3)c2)C(=O)CC1 | MAPK8 | enzyme activity, inhibitor |  | 4.938 µM, 6 h, unit not given, together with: GSH 10 mM pre-incubation | reference: vehicle | remaining activity | 0.0364 |

Repeated from above:
| SMILES | target | test | test system | setting | scale | quantity | value |
| --- | --- | --- | --- | --- | --- | --- | --- |
| CCCCCC(O)/C=C/C=O (stereo not drawn) | 26S proteasome regulatory subunit 10B (PSMC6, Homo sapiens, UniProt P62333) | acylphosphate-ATP probe SILAC-ABPP | ZAK-transfected HEK293T | 100 µM, together with: acylphosphate-ATP probe | reference: DMSO over compound-treated | probe labelling ratio | 0.64 |
| COC(=O)[C@@]1(C)C=C(C(=O)OC(C)(C)C)C(=O)CC1 | MAPK8 | D-peptide binding, inhibitor, FP peptide displacement |  | 125 µM | lower is stronger displacement | fraction bound | 0.509 |
| O=[N+]([O-])c1cc(Br)cc([N+](=O)[O-])c1NS(=O)(=O)c1ccc(Br)cc1 | PYL10, with HAB1 (Arabidopsis thaliana, UniProt Q8H1R0) | antagonist |  | 2.5 µM, together with: ABA 5 µM | higher = more HAB1 activity | HAB1 phosphatase activity | 0.083 a.u. and 0.09 a.u. and 0.081 a.u. |
